Measurements pooled from the literature.
A part holds a random share of what one study measured. Changes are numbered by the printed parent chain.
Chain of UniProt P51668 (whole entry, looked up): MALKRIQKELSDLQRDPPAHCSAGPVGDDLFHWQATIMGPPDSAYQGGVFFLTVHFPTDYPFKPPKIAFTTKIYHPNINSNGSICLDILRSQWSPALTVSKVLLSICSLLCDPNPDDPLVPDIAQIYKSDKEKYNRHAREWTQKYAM
Chain of UniProt Q9NPD8 (whole entry, looked up): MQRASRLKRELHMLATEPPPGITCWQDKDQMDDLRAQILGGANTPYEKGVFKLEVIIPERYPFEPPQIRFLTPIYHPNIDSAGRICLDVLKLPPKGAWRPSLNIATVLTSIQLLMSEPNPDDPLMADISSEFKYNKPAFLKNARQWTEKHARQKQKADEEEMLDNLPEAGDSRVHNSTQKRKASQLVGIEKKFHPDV
Chain of UniProt P61081 (whole entry, looked up): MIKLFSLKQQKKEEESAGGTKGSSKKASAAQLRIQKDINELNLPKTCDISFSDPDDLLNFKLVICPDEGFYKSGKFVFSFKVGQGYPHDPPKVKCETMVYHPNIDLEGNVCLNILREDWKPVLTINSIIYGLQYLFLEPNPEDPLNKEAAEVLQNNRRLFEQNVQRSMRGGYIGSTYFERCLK
Chain of UniProt O00762 (whole entry, looked up): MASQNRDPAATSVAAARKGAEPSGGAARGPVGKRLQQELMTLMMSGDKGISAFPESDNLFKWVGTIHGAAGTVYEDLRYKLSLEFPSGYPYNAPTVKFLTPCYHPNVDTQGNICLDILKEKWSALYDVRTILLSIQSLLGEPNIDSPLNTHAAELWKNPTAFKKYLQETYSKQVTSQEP
Chain of UniProt P63146 (whole entry, looked up): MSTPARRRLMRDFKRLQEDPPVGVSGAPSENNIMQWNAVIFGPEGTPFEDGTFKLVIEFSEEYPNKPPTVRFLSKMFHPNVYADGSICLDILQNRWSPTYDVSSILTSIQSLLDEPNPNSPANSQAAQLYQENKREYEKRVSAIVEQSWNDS

Series 1
Partner: ARF8 699-811 (Arabidopsis thaliana, UniProt Q9FGV1)
Technique: two-hybrid
Reference: out of 4 tests
Direction: higher = firmer interaction
B1: ARF1 538-665 (Arabidopsis thaliana, UniProt Q8L7G0); chain SRQIRSCTKVHMQGSAVGRAIDLTRSECYEDLFKKLEEMFDIKGELLESTKKWQVVYTDDEDDMMMVGDDPWNEFCGMVRKIFIYTPEEVKKLSPKNKLAVNARMQLKADAEENGNTEGRSSSMAGSR
B2: ARF6 790-935 (Arabidopsis thaliana, UniProt Q9ZTX8); chain SENPQSNTFVKVYKSGSFGRSLDISKFSSYHELRSELARMFGLEGQLEDPVRSGWQLVFVDRENDVLLLGDDPWPEFVSSVWCIKILSPQEVQQMGKRGLELLNSAPSSNNVDKLPSNGNCDDFGNRSDPRNLGNGIASVGGSFNY
B3: IAA32 (Arabidopsis thaliana, UniProt Q8RYC6); chain MDPNTPADFFKGSSKFHTYYSQTKKGGGVIDLGLSLRTIQHETYLPPARMIGLDGYGELIDWSQPSYNSITQLKSEDTGHQRLAQGYYNNEGESRGKYAYVKVNLDGLVVGRKVCLVDQGAYATLALQLNDMFGMQTVSGLRLFQTESEFSLVYRDREGIWRNVGDVPWKEFVESVDRMRIARRNDALLPF
B4: ARF7 1030-1164 (Arabidopsis thaliana, UniProt P93022); chain PAQTQRMRTYTKVQKRGSVGRSIDVNRYRGYDELRHDLARMFGIEGQLEDPQTSDWKLVYVDHENDILLVGDDPWEEFVNCVQSIKILSSAEVQQMSLDGNFAGVPVTNQACSGGDSGNAWRGHYDDNSATSFNR
B5: ARF4 660-788 (Arabidopsis thaliana, UniProt Q9ZTX9); chain QSSSKRICTKVHKQGSQVGRAIDLSRLNGYDDLLMELERLFNMEGLLRDPEKGWRILYTDSENDMMVVGDDPWHDFCNVVWKIHLYTKEEVENANDDNKSCLEQAALMMEASKSSSVSQPDSSPTITRV
B6: ARF2 727-859 (Arabidopsis thaliana, UniProt Q94JM3); chain TKTNSSRSCTKVHKQGIALGRSVDLSKFQNYEELVAELDRLFEFNGELMAPKKDWLIVYTDEENDMMLVGDDPWQEFCCMVRKIFIYTKEEVRKMNPGTLSCRSEEEAVVGEGSDAKDAKSASNPSLSSAGNS
Target sequence (chain): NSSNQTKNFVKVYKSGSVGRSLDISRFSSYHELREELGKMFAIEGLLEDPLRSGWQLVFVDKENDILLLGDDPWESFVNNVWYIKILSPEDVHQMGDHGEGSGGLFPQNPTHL
| Sequence | positive tests |
| --- | --- |
| B1 (ARF1 538-665) | 1 |
| B2 (ARF6 790-935) | 0 |
| B3 (IAA32) | 4 |
| B4 (ARF7 1030-1164) | 0 |
| B5 (ARF4 660-788) | 0 |
| B6 (ARF2 727-859) | 0 |

Series 2
Target: RING finger protein unkempt homolog, zinc fingers 1-6, SBP tag (UNK, Homo sapiens, UniProt Q9C0B0, residues 30-357)
Chain of UniProt Q9C0B0 (30-357, looked up): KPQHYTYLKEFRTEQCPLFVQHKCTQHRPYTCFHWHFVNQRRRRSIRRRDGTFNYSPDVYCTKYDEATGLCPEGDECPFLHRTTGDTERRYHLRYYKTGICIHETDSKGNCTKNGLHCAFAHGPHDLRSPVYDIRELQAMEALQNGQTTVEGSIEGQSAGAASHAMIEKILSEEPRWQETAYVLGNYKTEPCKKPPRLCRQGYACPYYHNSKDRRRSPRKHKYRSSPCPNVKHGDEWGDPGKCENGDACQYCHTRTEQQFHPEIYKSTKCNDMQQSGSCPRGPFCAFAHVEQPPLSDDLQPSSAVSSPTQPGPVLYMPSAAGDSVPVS
Technique: RNA Bind-n-Seq
Form: RNA
Sample: in vitro
Tested at: 100 nM
Notes: RNA with constant flanks, vertebrate orthologous sites, ends assumed
Reference: input RNA pool
Direction: higher = stronger binding
| Strand | bound/input enrichment |
| --- | --- |
| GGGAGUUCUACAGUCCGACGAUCCUGUGUGUUGGUGCAGAGUGCUCUGUACCAGUGCUCAUCAUCCUUCAUACCAACUAUCCCUCGUUGUAGGAAUUUAAUAUUUUUAAAAGUUUUACAUUGCUGUAUAUUCAAAGAUUUGUUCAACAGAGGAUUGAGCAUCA | 0.477 ratio |
| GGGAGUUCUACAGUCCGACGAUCAAAUAUACUUCAUGCCAUGGACUCCAUAUCGCACCGAUACUUUGAUAGAAUUUGCUUCUUUAGAGGACUUCCAAAAUGGACGCCAGCAGACGACAUAUAAACUGCCAAAUAGAGUGGAUGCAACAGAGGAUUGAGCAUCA | 0.959 ratio |
| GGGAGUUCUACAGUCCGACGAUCGGGUCUACUGACCACUCACCAUUAAUGUCUGGUAUCUGUAAAACACUUUUUUUUUGUUCCUAGUCUUUUUCUUGUACAAUUGAUGUUCUUUAAAAUUGUUAAUGUAUAACAGGGCUUAUGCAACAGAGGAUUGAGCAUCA | 0.706 ratio |
| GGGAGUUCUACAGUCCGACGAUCGACCUCUUGAACUCCUAACUUUCGAGCUGUGGCUGUUUUUGAUACUGAUUUUAUUUUCUUUACGACUUUCCCAUUUCCUGCCUUCUCUCCUUCUGUUCCCAAGGCUUGGCUUGUGGAUGGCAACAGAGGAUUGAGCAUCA | 1.11 ratio |
| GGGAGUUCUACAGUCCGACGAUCAAUUACACUAAUACUGAAGUUAAAAUUAAAAGGAUAUCCAAGGUGAUGAUAAAGUGUGUGUUGGUAGUUACUAAAAAAACCUUAGCUGUUAUUGCCUUGUAUUUCUAUCCCUUGUUUCAGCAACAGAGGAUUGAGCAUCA | 0.454 ratio |
| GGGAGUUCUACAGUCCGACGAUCAAGCUCUAGUUUCUAACAACUGACACCCUAAAAGAUUUAGAAAAGGUUUACAACACAAUCUAGUUUACGAAGAAAUCUUGUGCUAGAAUACUUUUUAAAGUAUUUUUGAAUACCAUUAAACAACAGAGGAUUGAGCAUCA | 0.481 ratio |
| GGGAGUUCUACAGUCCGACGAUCCUACAAUAAUGAAAACCUACAGGAAUUUUUUUUUUAUUUUUCAUUUUCCCCUUAGACAUAGUUAGUCUUUUUCCCCCCAGGCAGAUCAUUCUGAGUGUGCGAGUGUGUGUGCACAUGUUACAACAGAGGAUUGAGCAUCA | 2.71 ratio |
| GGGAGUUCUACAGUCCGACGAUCUCUAUACAAUUUUAAAAAUACUUCCUCAUAGGAUGCUUUGGCCCUUCAUCUAUUUAAUCAUAGCUACAUAUCUAUUUUUUAUAAGUAGCAGUACACAUUCAAAGGGGUAUUCCUAGCUCACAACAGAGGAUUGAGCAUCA | 1.22 ratio |
| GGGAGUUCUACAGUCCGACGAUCGAAGAUGGUGGUUGUACAUUAUUCAUUUAGGAAAUAUAAAAACUCGUUUUGUUUUGAAGCUAGGUAUUAAUUGGAAUAGCUAUUAUACCUGAGAACGGGGCAGCUGUGCCCUUCCUUUGACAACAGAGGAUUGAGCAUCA | 1.5 ratio |
| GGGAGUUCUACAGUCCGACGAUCGCCGUCUGAUUGGAUAAAGACCGUCCCAAGUUACAACCAAACAAACAGUUCAAUGGACUUUAGAAAUUAUAUGAUGCGAGAUGAAAAUCUGGAACCACUGCCCAAAAACUGGGAGAUGGCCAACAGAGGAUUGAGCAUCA | 0.636 ratio |
| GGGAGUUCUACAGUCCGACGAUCCCCAUGGCUGCUUUGUAUUACCUCAGUGAGUUACAGCCCCCCUUGGCAUUUAGUUGGUACUAGAGCCAGUCAUCCUUAACAAAUCUUUUCACAUUUUAUUUCUUUCACACAUAGUCAUCUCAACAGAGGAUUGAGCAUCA | 4.31 ratio |

Series 3
Molecule: H2BC12 (Homo sapiens, UniProt O60814)
Technique: cross-linking MS
Notes: hits only
| partner | interaction screen |
| --- | --- |
| H2BC5 (Homo sapiens, UniProt P58876) | cross-linked |
| H2AC25 (Homo sapiens, UniProt Q7L7L0) | cross-linked |
| H2AZ1 (Homo sapiens, UniProt P0C0S5) | cross-linked |
| H1-4 (Homo sapiens, UniProt P10412) | cross-linked |
| H2AC18 (Homo sapiens, UniProt Q6FI13) | cross-linked |
| UBC (Homo sapiens, UniProt P0CG48) | cross-linked |

Series 4
Target: CCNF, cyclin fold, Cln2 fusion (human)
Technique: yeast growth competition, sequencing
Sample: yeast
Notes: strong parent motif
Reference: not given
Direction: higher = stronger binding
Starting sequence: ORC1 docking peptide (human); PRARKRLELGNLG; partner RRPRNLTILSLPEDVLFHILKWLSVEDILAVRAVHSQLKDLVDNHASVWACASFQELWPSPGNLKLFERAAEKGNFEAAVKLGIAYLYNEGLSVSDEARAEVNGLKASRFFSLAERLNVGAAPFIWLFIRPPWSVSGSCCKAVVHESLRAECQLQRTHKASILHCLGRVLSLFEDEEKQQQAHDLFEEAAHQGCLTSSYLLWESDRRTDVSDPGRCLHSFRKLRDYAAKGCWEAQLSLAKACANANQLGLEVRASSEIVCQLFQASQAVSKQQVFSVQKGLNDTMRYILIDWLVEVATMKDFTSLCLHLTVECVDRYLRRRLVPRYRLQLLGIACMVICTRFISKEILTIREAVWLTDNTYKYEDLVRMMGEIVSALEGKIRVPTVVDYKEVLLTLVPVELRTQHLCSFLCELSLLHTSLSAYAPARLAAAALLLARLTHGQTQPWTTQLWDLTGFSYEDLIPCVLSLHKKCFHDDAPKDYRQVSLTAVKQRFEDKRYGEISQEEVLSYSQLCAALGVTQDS
| Variant | normalised enrichment score |
| --- | --- |
| N11Q | 2.65 |
| L9S | 1.71 |
| E8R | 1.42 |
| L9T | 0.878 |
| R6P | 0.935 |
| P1E | 3.58 |
| K5W | 1.33 |
| K5H | 1.12 |
| R2Q | 3.07 |
| R4S | 0.939 |
| L9F | 7.26 |
| L7W | 1.87 |
| K5C | 1.31 |
| R4Y | 1.24 |
| G10K | 1.35 |
| L7C | 1.19 |
| R2T | 4.67 |

Series 5
Sequence: B7 (MARCHF1 RING domain)
Technique: yeast two-hybrid
Sample: yeast
Notes: mostly zero background
Reference: not given
Direction: higher = stronger interaction
B7: MARCHF1 RING domain (UniProt Q8TCQ1); chain TAPRSQSRLSVCPSTQDICRICHCEGDEESPLITPCRCTGTLRFVHQSCLHQWIKSSDTRCCELCKYDFIMETKLKPLRKWE
| target | lacZ reporter activity |
| --- | --- |
| UBE2M UBC core domain (UniProt P61081) | 0 |
| UBE2D1 UBC core domain (UniProt P51668) | 0 |
| UBE2B UBC core domain (UniProt P63146) | 0 |
| UBE2T UBC core domain (UniProt Q9NPD8) | 0 |
| UBE2C UBC core domain (UniProt O00762) | 0 |

Some of these lines once more (series 4):
| Variant | normalised enrichment score |
| --- | --- |
| K5W | 1.33 |
| K5H | 1.12 |
| R2Q | 3.07 |
